Experimental data from different studies.
Lines come from different studies, so protocols differ. ± marks the error that the study gave. ≈ marks a conversion by molar mass, not a printed value.

SMILES = CCCc1cc2cc(-n3nc(C)c4c3CC3(CCC3)CC4=O)cc(N3CCC(O)CC3)c2c(=O)[nH]1; test = shake flask; setting = 24 h, pH 6.8, room temperature; endpoint = aqueous solubility; result = 0.596 µM (≈ 0.283 µg/mL)
SMILES = CN1Cc2cc(Cl)ccc2-n2c(nnc2C2CCN(c3cccc(F)n3)CC2)C1; test = mass spectrometry; system = male Sprague-Dawley rat, brain; setting = intravenous, 0.03 mg/kg, 30 min, single dose; endpoint = concentration; result = 2.67 ng/mL
SMILES = CC(C)C[C@@H](NC(=O)[C@@H](CCCNC(=N)N)NC(=O)[C@@H](Cc1c[nH]cn1)NC(=O)[C@@H](Cc1c[nH]c2ccccc12)NC(=O)[C@@H](Cc1c[nH]cn1)NC(=O)[C@@H](Cc1ccccc1)NC(=O)[C@H](NC(=O)[C@@H](Cc1ccc(O)cc1)NC(=O)CNC(=O)CNC(=O)CCOCCOCCOCCNC(=O)CN1CCN(CC(=O)O)CCN(CC(=O)O)CC1)[C@H](C)O)C(=O)N[C@H](CC(N)=O)C(=O)N1CCC[C@@H]1C(=O)O [gallium-68 labelled]; system = C57BL/6 mice, male; setting = intravenous, 1.85 MBq, 30 min; how to read = baseline: tumour over lung; endpoint = tissue ratio; result = 2.37 ± 0.39
SMILES = O=C(CN1CCN(CC(=O)NCP(=O)([O-])[O-])CCN(CC(=O)NCP(=O)([O-])[O-])CCN(CC(=O)NCP(=O)([O-])[O-])CC1)NCP(=O)([O-])[O-].[Gd+3]; system = Sprague-Dawley rats, blood; setting = intravenous, 35 µmol/kg, two-compartment model, added: GdDTPA 68 µmol/kg co-injected; endpoint = mean residence time; result = 49 min
SMILES = CC(=O)NCCCC[C@@H]1NC(=O)[C@H](Cc2c[nH]c3c(C)cccc23)NC(=O)[C@H]([C@@H](C)O)NC(=O)[C@H](CC(N)=O)NC(=O)[C@@H](NC(C)=O)C(C)(C)SSC(C)(C)[C@@H](C(=O)N[C@@H](Cc2ccc(OCCN)cc2)C(=O)N[C@@H](Cc2ccc3ccccc3c2)C(=O)NC2(C(=O)N[C@@H](CCC(=O)O)C(=O)N[C@@H](CC(N)=O)C(=O)N[C@@H](Cc3cccnc3)C(=O)N(C)CC(N)=O)CCOCC2)NC1=O; test = equilibrium dialysis; system = rabbit, plasma; setting = 1 µM; endpoint = plasma protein binding; result = 71.8 ± 0.4%
SMILES = CCCCC[C@@H]1NC(=O)[C@@H](C)N(C)C(=O)[C@H](CCCCC)N(C)C(=O)[C@@H](C)N(C)C(=O)[C@H](CCCCC)NC(=O)[C@@H](C)N(C)C(=O)[C@H](CCCCC)N(C)C(=O)[C@@H](C)N(C)C1=O; test = PAMPA, HPLC-UV; setting = 500 µM, pH 7.4; endpoint = log Papp; result = -5.4 ± 0.05
SMILES = CCn1ccc(-c2cc(-c3cnn(C)c3)cc([C@@H](C)NC(=O)c3cc(OCCN(C)C)ccc3C)c2)n1; system = C57BL/6J mice, male, plasma; setting = iv, 10 mg/kg; endpoint = C0; result = 6250 ng/mL
SMILES = CSCC[C@H](N)C(=O)N[C@@H](C)C(=O)N[C@@H](CCCNC(=N)N)C(=O)N[C@@H](CCCNC(=N)N)C(=O)N[C@@H](CC(=O)O)C(=O)N[C@@H](CCCCN)C(=O)N[C@H](C(=O)N[C@@H](CC(=O)O)C(=O)N[C@@H](Cc1ccccc1)C(=O)N[C@@H](C)C(=O)N[C@@H](CCCNC(=N)N)C(=O)N[C@@H](CCCNC(=N)N)C(=O)N[C@@H](CCCNC(=N)N)C(=O)N[C@@H](CCCNC(=N)N)C(=O)NCCCCCC(=O)NCCCCC(NC(=O)CCCCCNC(=O)[C@H](CCCNC(=N)N)NC(=O)[C@H](CCCNC(=N)N)NC(=O)[C@H](CCCNC(=N)N)NC(=O)[C@H](CCCNC(=N)N)NC(=O)[C@H](C)NC(=O)[C@H](Cc1ccccc1)NC(=O)[C@H](CC(=O)O)NC(=O)[C@@H](NC(=O)[C@H](CCCCN)NC(=O)[C@H](CC(=O)O)NC(=O)[C@H](CCCNC(=N)N)NC(=O)[C@H](CCCNC(=N)N)NC(=O)[C@H](C)NC(=O)[C@@H](N)CCSC)[C@@H](C)O)C(=O)NCCCCC(NC(=O)C(CCCCNC(=O)CCCCCNC(=O)[C@H](CCCNC(=N)N)NC(=O)[C@H](CCCNC(=N)N)NC(=O)[C@H](CCCNC(=N)N)NC(=O)[C@H](CCCNC(=N)N)NC(=O)[C@H](C)NC(=O)[C@H](Cc1ccccc1)NC(=O)[C@H](CC(=O)O)NC(=O)[C@@H](NC(=O)[C@H](CCCCN)NC(=O)[C@H](CC(=O)O)NC(=O)[C@H](CCCNC(=N)N)NC(=O)[C@H](CCCNC(=N)N)NC(=O)[C@H](C)NC(=O)[C@@H](N)CCSC)[C@@H](C)O)NC(=O)CCCCCNC(=O)[C@H](CCCNC(=N)N)NC(=O)[C@H](CCCNC(=N)N)NC(=O)[C@H](CCCNC(=N)N)NC(=O)[C@H](CCCNC(=N)N)NC(=O)[C@H](C)NC(=O)[C@H](Cc1ccccc1)NC(=O)[C@H](CC(=O)O)NC(=O)[C@@H](NC(=O)[C@H](CCCCN)NC(=O)[C@H](CC(=O)O)NC(=O)[C@H](CCCNC(=N)N)NC(=O)[C@H](CCCNC(=N)N)NC(=O)[C@H](C)NC(=O)[C@@H](N)CCSC)[C@@H](C)O)C(N)=O)[C@@H](C)O (some centres unmarked); system = C57BL/6 mouse female, spleen; setting = dose not given, 6 h; how to read = baseline: total; endpoint = mean tissue distribution; result = 1.19%
SMILES = CCN(CC)CCOc1ccc(-c2nnn(Cc3ccc(OC)cc3)c2N)cc1; test = metabolic stability; system = dog, plasma; endpoint = half-life; result = > 6.21 h
SMILES = CC[C@H](C)[C@H](NC(=O)[C@H](CCCCN)NC(=O)CNC(=O)[C@H](CC(C)C)NC(=O)[C@H](Cc1ccccc1)NC(=O)[C@H](CCCCN)NC(=O)[C@H](CO)NC(=O)[C@H](Cc1ccccc1)NC(=O)[C@H](Cc1c[nH]c2ccccc12)NC(=O)[C@H](CCC(N)=O)NC(=O)[C@@H](NC(=O)[C@H](Cc1ccccc1)NC(=O)CCCCCNC(=O)CN1CCN(CC(=O)O)CCN(CC(=O)O)CCN(CC(=O)O)CC1)C(C)C)C(=O)N[C@@H](CCC(=O)O)C(=O)N1CCC[C@H]1C(=O)N[C@@H](CC(=O)O)C(=O)N[C@H](C(=O)N[C@@H](CO)C(=O)N[C@@H](CCC(N)=O)C(=O)N[C@H](C(=O)N[C@@H](CCC(N)=O)C(=O)N[C@@H](CC(=O)O)C(=O)N1CCC[C@H]1C(=O)N[C@@H](CC(N)=O)C(=O)N[C@@H](CC(=O)O)C(=O)N[C@@H](CCC(N)=O)C(=O)N[C@@H](Cc1ccc(O)cc1)C(=O)N[C@@H](CCC(=O)O)C(=O)N1CCC[C@H]1C(=O)N[C@@H](Cc1ccccc1)C(=O)O)C(C)C)C(C)C [copper-64 labelled]; system = C57BL/6 male mouse, tumour-naive, bone; setting = 24 h; endpoint = tissue uptake; result = 1.29 ± 0.1 %ID/g
SMILES = C/C(=N\OCCCN1CCCCC1)c1ccc(C(F)(F)F)cc1; system = mouse, plasma; setting = oral, 150 mg/kg once daily, day 7; endpoint = AUC(0-t); result = 10400 ± 1130 ng·h/mL
SMILES = CC(CCC(=O)NCC(=O)O)C1CCC2C3C(O)CC4CC(OC5OC(C(=O)O)C(O)C(O)C5O)CCC4(C)C3CCC12C (centres unmarked); system = men, T/C genotype, plasma; setting = dose not given, geometric mean; endpoint = glucuronide to parent ratio; result = 0.158
SMILES = O=C1NC2(CC2)COc2ncc(F)cc2[C@H]2COCCN2c2ccn3ncc1c3n2; system = Sprague-Dawley rat, male, serum; setting = oral, 5 mg/kg/day, 4 weeks daily, end of recovery period; endpoint = potassium; result = 4.62 ± 0.47 mmol/L
SMILES = C#Cc1c(F)ccc2cc(O)cc(-c3ncc4c(N5CC6CCC(C5)N6C(=O)OC(C)OC(=O)CC5CCOCC5)nc(OC[C@@]56CCCN5C[C@H](F)C6)nc4c3F)c12 (some centres unmarked); test = refers to: prodrug; system = mouse whole blood; setting = 1 µM; endpoint = t1/2; result = 4.13 min
SMILES = COCC12CCC(OC)C34C5CC6(O)C(OC)C(O)C(O)(C5C6OC(=O)c5ccccc5)C(C(OC)C13)C4N(C)C2 (centres unmarked); system = Sprague-Dawley rat, plasma; setting = oral, dose not given, with NADES in PCW extract; endpoint = MRT(0-t); result = 5.83 ± 0.919 h
SMILES = CCCCCCCCCCCCCCCC(=O)N[C@@H](CCC(=O)NCCOCCOCCC(=O)NCCOCCOCCC(=O)NCCCC[C@H](NC(=O)[C@H](CC(=O)O)NC(=O)[C@H](CC(C)C)NC(=O)[C@H](Cc1ccc(O)cc1)NC(=O)[C@H](CCCCN)NC(=O)[C@H](CO)NC(=O)[C@H](Cc1ccc(O)cc1)NC(=O)[C@H](CC(=O)O)NC(=O)[C@H](CO)NC(=O)[C@@H](NC(=O)[C@H](Cc1ccccc1)NC(=O)[C@@H](NC(=O)CNC(=O)[C@H](CCC(N)=O)NC(=O)[C@@H](CO)NC(=O)[C@@H](N)Cc1c[nH]cn1)[C@@H](C)O)[C@@H](C)O)C(=O)N[C@@H](CCCNC(=N)N)C(=O)N[C@@H](CCCNC(=N)N)C(=O)N[C@@H](C)C(=O)N[C@@H](CCC(N)=O)C(=O)N[C@@H](CC(=O)O)C(=O)N[C@@H](Cc1ccccc1)C(=O)N[C@H](C(=O)N[C@@H](CCC(N)=O)C(=O)N[C@@H](Cc1c[nH]c2ccccc12)C(=O)N[C@@H](CC(C)C)C(=O)N[C@@H](CC(C)C)C(=O)N[C@@H](CC(N)=O)C(=O)N[C@H](C(=O)NCC(=O)NCC(=O)N1CCC[C@H]1C(=O)N[C@@H](CO)C(=O)N[C@@H](CO)C(=O)NCC(=O)N[C@@H](C)C(=O)N1CCC[C@H]1C(=O)N1CCC[C@H]1C(=O)N1CCC[C@H]1C(=O)N[C@@H](CO)C(N)=O)[C@@H](C)O)C(C)C)C(=O)O; test = refers to: ALT; system = rhesus monkey, male; setting = subcutaneous, 300 µg/kg once daily, 28 days; endpoint = serum enzyme activity; result = 34.3 ± 6.6 U/L
SMILES = COc1ccc(C([O-])=CC(=O)c2ccc(C(C)(C)C)cc2)cc1.[Ru+2].c1ccc(-c2cccc(-c3ccccn3)n2)nc1.c1cnccn1; system = zebrafish larvae; setting = 10 µM; endpoint = toxicity; result = 100%

Some of these lines once more:
SMILES = CCCCCCCCCCCCCCCC(=O)N[C@@H](CCC(=O)NCCOCCOCCC(=O)NCCOCCOCCC(=O)NCCCC[C@H](NC(=O)[C@H](CC(=O)O)NC(=O)[C@H](CC(C)C)NC(=O)[C@H](Cc1ccc(O)cc1)NC(=O)[C@H](CCCCN)NC(=O)[C@H](CO)NC(=O)[C@H](Cc1ccc(O)cc1)NC(=O)[C@H](CC(=O)O)NC(=O)[C@H](CO)NC(=O)[C@@H](NC(=O)[C@H](Cc1ccccc1)NC(=O)[C@@H](NC(=O)CNC(=O)[C@H](CCC(N)=O)NC(=O)[C@@H](CO)NC(=O)[C@@H](N)Cc1c[nH]cn1)[C@@H](C)O)[C@@H](C)O)C(=O)N[C@@H](CCCNC(=N)N)C(=O)N[C@@H](CCCNC(=N)N)C(=O)N[C@@H](C)C(=O)N[C@@H](CCC(N)=O)C(=O)N[C@@H](CC(=O)O)C(=O)N[C@@H](Cc1ccccc1)C(=O)N[C@H](C(=O)N[C@@H](CCC(N)=O)C(=O)N[C@@H](Cc1c[nH]c2ccccc12)C(=O)N[C@@H](CC(C)C)C(=O)N[C@@H](CC(C)C)C(=O)N[C@@H](CC(N)=O)C(=O)N[C@H](C(=O)NCC(=O)NCC(=O)N1CCC[C@H]1C(=O)N[C@@H](CO)C(=O)N[C@@H](CO)C(=O)NCC(=O)N[C@@H](C)C(=O)N1CCC[C@H]1C(=O)N1CCC[C@H]1C(=O)N1CCC[C@H]1C(=O)N[C@@H](CO)C(N)=O)[C@@H](C)O)C(C)C)C(=O)O; test = refers to: ALT; system = rhesus monkey, male; setting = subcutaneous, 300 µg/kg once daily, 28 days; endpoint = serum enzyme activity; result = 34.3 ± 6.6 U/L
SMILES = COc1ccc(C([O-])=CC(=O)c2ccc(C(C)(C)C)cc2)cc1.[Ru+2].c1ccc(-c2cccc(-c3ccccn3)n2)nc1.c1cnccn1; system = zebrafish larvae; setting = 10 µM; endpoint = toxicity; result = 100%
